# Measured values collected from several papers.
# Parts stem from different laboratories: compare values within a part only. Substitutions count along the parent as printed.

# Series 1 — technique: universal PBM; molecule type: double-stranded DNA, one strand shown; matrix: in vitro; tested at: not given; direction: higher = stronger binding
# Target: Sal-like protein 4, full length isoform B (SALL4, Homo sapiens, UniProt Q9UJQ4-2, residues 1-616)
# Notes: 8-mer, flanks averaged, mean of replicates
# Residues (chain): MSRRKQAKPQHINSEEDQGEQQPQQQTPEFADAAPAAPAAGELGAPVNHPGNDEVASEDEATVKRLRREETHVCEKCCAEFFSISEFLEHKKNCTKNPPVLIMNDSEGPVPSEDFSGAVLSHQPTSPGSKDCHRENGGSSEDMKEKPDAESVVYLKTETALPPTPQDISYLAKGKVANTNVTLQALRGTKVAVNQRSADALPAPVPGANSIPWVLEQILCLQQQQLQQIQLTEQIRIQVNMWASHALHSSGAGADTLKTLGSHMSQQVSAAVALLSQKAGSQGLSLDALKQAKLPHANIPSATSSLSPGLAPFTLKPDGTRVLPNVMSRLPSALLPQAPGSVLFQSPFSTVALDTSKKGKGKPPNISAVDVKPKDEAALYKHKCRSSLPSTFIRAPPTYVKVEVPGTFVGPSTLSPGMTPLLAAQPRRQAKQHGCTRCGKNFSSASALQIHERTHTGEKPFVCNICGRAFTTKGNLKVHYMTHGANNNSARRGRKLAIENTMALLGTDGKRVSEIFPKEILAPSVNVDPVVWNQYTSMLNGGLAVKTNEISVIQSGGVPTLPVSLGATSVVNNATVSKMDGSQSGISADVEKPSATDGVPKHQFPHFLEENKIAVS
Oligonucleotide,E-score
AGAGTCAT,0.0591
GTGACAAC,-0.0179
AGGCCTGG,-0.282
ATTGCGGA,0.0585
CGGCGTGA,-0.261
GGTTCATA,0.281

# Series 2 — target: OGT, full length, His-tagged (human); technique: phage display, sequencing; matrix: in vitro; tested at: 1 µg OGT; baseline: input library; direction: higher = stronger binding
# Notes: single substitutions, 15-mer displayed peptide, unchanged parent 5.27
# Parent: peptide; GDFPVMFMPKYSIIY; partner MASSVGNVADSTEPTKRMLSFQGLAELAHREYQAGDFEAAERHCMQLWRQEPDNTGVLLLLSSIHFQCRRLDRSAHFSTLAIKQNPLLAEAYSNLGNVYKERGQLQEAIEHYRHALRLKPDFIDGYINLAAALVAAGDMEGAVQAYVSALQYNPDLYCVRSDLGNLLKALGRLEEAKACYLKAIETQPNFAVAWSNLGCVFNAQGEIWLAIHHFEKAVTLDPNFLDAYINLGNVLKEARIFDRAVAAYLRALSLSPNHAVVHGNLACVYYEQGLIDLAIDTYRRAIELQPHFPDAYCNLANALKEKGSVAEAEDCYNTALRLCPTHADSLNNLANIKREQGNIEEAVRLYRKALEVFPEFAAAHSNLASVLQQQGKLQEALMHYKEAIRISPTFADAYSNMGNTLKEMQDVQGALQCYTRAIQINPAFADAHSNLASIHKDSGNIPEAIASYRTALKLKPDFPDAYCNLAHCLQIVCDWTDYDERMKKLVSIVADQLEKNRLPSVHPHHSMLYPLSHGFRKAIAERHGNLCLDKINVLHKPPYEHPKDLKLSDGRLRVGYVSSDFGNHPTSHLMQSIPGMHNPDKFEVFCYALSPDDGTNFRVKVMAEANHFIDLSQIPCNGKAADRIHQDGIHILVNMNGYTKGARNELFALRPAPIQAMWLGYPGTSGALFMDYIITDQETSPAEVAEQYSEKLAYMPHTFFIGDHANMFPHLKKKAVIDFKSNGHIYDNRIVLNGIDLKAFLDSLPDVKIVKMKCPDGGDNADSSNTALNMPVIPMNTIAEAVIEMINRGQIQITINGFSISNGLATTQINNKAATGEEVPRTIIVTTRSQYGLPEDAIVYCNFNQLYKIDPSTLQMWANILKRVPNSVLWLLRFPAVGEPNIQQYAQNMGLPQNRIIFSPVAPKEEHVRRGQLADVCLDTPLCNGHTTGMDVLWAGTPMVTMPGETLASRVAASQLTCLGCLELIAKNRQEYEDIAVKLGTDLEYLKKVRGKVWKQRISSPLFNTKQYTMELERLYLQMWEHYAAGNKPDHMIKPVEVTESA
Change,fold enrichment [fold]
GDFPVMFMPKWSIIY [Y11W],1.43
GDFPVIFMPKYSIIY [M6I],9.75
GDFPVMFMGKYSIIY [P9G],0.11
GDFPSMFMPKYSIIY [V5S],8.39

# Series 3 — target: CCNB1, cyclin fold, Cln2 fusion (human); technique: yeast growth competition, sequencing; matrix: yeast; notes: weak parent motif; baseline: not given; direction: higher = stronger binding
# Parent: GMNC docking peptide (human); KNAKRNLSSEFAN
Change,normalised enrichment score
KNAKRNTSSEFAN [L7T],0.649
KNAKRNLSSEFTN [A12T],0.561
KNAKRNLSSEFIN [A12I],0.346
KNRKRNLSSEFAN [A3R],0.199

# Other studies, line by line
Substance,target,test,test system,setting,how to read,measurement,result
"PhoQ, residues 284 288 289 292 302 303 TGYLSA","PhoP, residues 12 14 15 18 19 DLLYY (Escherichia coli, UniProt P23836)","Sort-seq, refers to: YFP reporter",E. coli,"PhoQ-PhoP variant library, together with: 10 µM Mg2+","baseline: high Mg2+ state, higher = stronger signaling",fold induction,2.15

# For quick reference, copied from above (series 1):
Oligonucleotide,E-score
ATTGCGGA,0.0585
